# Results collected from several papers.
Structure (SMILES),technique,sample,time,pH,temperature,notes,kinetic solubility
Cc1[nH]c(=O)c(CNC(=O)c2ccc(C(F)(F)F)nc2)c2c1CCCC2,U-HPLC,20% DMSO in water,,,,,132 µg/mL
S=C(Nc1ccc(Cl)cc1)Nc1cccc2[nH]ccc12,,PBS with SDS,2 h,pH 7.4,37 °C,1% DMSO,> 100 µM
Cc1[nH]c(=O)c(CNC(=O)c2ccc(C(F)(F)F)cn2)c2c1CCCC2,U-HPLC,20% DMSO in water,,,,,102 µg/mL
Cc1cnc(Nc2cc(C)c(C)c(C)c2)nc1Nc1ccc2oc(=O)[nH]c2c1,,aqueous buffer,,pH 6.8,,hemifumarate salt,1 µM
COc1cc2nc(N3CCCCC3)nc(NC3CCN(C)CC3)c2cc1OC,nephelometry,,,pH 6.5,,,6.3 to 12.5 µg/mL
CCC[C@]1(NC(=O)c2sccc2Cl)C[C@@H](O)C1,nephelometry,HBSS with 1% DMSO,6 h,pH 7.4,,,≥ 1000 µM
COC[C@H](NC(=O)[C@H](CCc1ccccc1)NC(=O)CN1CCOCC1)C(=O)N[C@H](/C=C/S(C)(=O)=O)CC(C)C,,water,,,,,198 µM
Cc1nc(N[C@@H](C)c2ccc(-c3nc(C4CC4)no3)cc2)c2cc(C)oc2n1,,,,pH 7.4,,,0.05 µM
Cc1ccc(NCC(=O)Nc2ccc(F)c(Cl)c2)cc1S(=O)(=O)N1CCOCC1,,water,,,,,164 µM

# Repeated from above:
Structure (SMILES),technique,sample,time,pH,temperature,notes,kinetic solubility
COC[C@H](NC(=O)[C@H](CCc1ccccc1)NC(=O)CN1CCOCC1)C(=O)N[C@H](/C=C/S(C)(=O)=O)CC(C)C,,water,,,,,198 µM
